# Measured values pooled from the literature.
# Parts stem from different laboratories: compare values within a part only.
# UniProt P53350, sequence (whole entry, looked up): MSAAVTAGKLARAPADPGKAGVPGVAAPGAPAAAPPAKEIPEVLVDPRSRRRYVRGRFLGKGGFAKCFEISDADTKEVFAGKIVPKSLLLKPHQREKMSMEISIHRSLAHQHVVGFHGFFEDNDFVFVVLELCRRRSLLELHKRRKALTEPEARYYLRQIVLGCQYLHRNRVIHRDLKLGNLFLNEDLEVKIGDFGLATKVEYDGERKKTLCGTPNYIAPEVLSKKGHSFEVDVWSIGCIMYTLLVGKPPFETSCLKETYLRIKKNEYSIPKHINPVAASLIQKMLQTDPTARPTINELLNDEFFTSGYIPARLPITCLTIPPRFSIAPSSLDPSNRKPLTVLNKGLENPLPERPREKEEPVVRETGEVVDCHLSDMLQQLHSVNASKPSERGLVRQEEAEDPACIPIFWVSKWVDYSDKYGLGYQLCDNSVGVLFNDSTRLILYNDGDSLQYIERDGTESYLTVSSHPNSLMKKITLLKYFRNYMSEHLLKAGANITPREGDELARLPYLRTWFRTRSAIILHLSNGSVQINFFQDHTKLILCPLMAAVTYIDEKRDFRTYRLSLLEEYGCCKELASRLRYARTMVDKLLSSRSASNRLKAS
# UniProt P08631, sequence (whole entry, looked up): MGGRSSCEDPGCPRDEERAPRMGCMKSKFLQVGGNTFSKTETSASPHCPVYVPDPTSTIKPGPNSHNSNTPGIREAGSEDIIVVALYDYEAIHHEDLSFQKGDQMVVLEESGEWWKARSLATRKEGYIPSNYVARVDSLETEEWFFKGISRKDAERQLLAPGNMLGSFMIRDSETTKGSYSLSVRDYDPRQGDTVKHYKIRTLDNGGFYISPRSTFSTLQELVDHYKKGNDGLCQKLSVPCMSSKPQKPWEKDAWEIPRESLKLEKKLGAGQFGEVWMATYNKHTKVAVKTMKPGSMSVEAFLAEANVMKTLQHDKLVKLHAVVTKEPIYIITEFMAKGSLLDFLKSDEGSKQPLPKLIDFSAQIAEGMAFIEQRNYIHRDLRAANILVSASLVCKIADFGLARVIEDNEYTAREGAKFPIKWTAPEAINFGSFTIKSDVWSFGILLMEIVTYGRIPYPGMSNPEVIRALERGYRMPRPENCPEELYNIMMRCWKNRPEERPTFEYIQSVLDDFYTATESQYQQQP
# UniProt Q13233, sequence (whole entry, looked up): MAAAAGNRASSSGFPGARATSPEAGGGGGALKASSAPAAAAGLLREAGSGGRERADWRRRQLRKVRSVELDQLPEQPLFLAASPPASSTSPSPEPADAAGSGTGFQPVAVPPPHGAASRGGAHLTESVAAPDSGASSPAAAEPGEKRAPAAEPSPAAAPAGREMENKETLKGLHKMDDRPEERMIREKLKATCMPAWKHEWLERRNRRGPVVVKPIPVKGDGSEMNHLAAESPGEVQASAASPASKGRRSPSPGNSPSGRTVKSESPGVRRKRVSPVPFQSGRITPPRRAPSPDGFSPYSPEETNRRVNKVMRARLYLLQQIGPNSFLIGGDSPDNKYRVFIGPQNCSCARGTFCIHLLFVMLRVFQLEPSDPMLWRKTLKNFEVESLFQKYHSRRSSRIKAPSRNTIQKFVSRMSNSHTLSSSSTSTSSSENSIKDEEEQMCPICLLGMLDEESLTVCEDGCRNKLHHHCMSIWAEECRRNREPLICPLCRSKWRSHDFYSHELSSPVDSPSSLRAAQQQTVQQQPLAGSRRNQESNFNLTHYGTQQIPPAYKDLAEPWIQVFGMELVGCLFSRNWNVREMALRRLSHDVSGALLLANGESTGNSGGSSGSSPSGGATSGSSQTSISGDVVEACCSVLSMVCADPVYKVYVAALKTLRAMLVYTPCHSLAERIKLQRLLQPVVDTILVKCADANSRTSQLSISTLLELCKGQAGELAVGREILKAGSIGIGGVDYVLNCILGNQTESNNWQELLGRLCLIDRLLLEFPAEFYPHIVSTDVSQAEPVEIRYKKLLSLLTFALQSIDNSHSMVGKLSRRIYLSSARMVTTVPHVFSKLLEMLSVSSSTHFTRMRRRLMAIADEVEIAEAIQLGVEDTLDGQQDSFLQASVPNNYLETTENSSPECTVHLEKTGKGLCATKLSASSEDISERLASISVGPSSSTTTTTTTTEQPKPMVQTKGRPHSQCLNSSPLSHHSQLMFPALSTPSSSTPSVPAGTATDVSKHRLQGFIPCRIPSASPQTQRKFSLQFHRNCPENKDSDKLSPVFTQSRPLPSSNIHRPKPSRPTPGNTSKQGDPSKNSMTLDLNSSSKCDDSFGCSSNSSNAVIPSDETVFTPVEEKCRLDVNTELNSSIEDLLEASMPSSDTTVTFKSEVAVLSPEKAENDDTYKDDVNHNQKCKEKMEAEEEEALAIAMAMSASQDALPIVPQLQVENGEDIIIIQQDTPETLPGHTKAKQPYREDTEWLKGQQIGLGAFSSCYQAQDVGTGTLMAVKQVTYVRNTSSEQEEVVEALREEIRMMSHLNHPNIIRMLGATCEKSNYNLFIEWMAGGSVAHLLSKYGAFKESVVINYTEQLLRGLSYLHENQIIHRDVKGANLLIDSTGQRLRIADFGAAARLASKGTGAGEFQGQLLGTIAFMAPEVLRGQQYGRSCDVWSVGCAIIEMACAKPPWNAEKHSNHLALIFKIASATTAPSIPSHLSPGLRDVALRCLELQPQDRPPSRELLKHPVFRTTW
# UniProt Q8N752, sequence (whole entry, looked up): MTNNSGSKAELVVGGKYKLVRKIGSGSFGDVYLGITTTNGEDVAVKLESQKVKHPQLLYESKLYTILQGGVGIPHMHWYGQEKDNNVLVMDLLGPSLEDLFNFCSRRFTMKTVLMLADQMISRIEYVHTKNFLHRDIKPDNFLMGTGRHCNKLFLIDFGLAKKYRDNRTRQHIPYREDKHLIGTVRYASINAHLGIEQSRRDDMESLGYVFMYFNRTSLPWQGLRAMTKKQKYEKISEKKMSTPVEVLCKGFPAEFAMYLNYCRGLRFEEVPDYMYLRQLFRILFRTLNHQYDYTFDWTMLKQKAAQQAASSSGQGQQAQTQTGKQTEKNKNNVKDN
# UniProt P42681, sequence (whole entry, looked up): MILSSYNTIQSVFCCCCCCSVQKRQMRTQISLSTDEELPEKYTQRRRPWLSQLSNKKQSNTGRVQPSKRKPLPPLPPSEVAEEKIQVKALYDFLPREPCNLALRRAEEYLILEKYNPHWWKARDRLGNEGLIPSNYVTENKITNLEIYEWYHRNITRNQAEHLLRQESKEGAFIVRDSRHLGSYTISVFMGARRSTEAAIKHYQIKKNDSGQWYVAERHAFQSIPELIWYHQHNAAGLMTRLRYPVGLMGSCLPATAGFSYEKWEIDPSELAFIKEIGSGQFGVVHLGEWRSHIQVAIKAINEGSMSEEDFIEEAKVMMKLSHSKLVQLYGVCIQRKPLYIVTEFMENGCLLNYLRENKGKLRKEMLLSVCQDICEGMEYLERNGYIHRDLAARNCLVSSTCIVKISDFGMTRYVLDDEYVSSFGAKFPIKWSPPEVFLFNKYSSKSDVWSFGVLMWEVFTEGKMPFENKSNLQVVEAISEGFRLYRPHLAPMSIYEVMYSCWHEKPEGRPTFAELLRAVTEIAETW
# UniProt P53778, sequence (whole entry, looked up): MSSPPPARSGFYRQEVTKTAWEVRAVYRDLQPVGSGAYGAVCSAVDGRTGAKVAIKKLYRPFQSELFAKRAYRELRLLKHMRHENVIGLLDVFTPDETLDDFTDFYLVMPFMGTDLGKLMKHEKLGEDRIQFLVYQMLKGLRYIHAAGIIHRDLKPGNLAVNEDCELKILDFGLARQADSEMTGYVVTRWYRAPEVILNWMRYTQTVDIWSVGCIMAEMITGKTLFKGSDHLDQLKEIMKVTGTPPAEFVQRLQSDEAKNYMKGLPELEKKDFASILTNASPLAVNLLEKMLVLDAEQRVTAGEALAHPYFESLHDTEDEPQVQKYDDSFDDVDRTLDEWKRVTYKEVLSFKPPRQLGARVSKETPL
# UniProt P36896, sequence (whole entry, looked up): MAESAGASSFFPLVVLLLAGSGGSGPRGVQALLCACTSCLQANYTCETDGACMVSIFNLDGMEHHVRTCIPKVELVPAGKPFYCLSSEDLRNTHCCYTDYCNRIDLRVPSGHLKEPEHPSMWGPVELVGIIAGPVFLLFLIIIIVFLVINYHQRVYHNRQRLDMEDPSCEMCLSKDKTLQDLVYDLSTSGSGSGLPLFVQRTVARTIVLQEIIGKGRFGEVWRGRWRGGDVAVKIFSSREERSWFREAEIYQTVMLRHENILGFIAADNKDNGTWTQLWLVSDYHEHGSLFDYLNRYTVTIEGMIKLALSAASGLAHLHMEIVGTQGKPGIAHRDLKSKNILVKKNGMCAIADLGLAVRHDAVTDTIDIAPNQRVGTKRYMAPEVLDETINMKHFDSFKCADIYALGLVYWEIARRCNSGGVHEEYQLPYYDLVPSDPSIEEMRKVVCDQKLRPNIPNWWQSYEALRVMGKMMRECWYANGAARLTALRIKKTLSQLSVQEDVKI

# Set 1
# Target: Centromere-binding protein 1, full length, N-terminal tag (CBF1, Saccharomyces cerevisiae, UniProt P17106, residues 1-351)
# UniProt P17106, sequence (whole entry, looked up): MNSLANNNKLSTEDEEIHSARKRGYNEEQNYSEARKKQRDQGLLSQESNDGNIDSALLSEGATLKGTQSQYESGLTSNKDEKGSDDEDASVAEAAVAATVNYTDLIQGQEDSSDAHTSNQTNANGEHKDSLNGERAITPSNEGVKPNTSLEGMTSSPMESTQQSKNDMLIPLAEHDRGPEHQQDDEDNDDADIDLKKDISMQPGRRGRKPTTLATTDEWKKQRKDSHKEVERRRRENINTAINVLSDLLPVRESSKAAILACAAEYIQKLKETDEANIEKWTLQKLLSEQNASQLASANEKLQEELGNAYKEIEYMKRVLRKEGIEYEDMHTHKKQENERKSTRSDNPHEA
# Method: protein-binding microarray
# Form: double-stranded DNA, one strand shown
# Medium: in vitro
# Concentration: 0.8 µM
# Setting: whole 60-bp probe, no competitor
# Reading: higher = stronger binding
# Shared flanks, not repeated: … GTCTTGATTCGCTTGACGCTGCTG
Oligonucleotide,fluorescence intensity [a.u.]
GAATGGATAAGCTGTCATGCTACATTAGCAATATAG,560
CTACAGAAAATTGTTATCGTGATTGAGAACTGATTC,644
CTACTTTTTTTTCACGTGCTGCGCTGATGTAAGTTC,5620
GAAGTGCCCTCTGGGTAACAGGTGAATATGGAGTAG,496
CTAATTAAAAAATATCACGACATTTATAAATCTTTC,791
GAATCATCATCAATCCTCGTGTCTCTGCTTACATAG,568
GAACGTCAGGACCGGAGTCAGGTGAAAAAATGTTAG,977
GAACAAATTAGTGAAAACGTGGATATCAACTTGTAG,655

# Set 2
# Structure (SMILES): Cc1noc([C@H]2C[C@@H](c3ccc(C(F)(F)F)cc3)CN(C(=O)N3CCS(=O)(=O)C3)C2)n1
# Concentration: 1 µM
target,read-out,method,remaining binding
"Activin receptor type-1B (ACVR1B, Homo sapiens, UniProt P36896)",cell-free assay,competition with immobilised ligand,100%
"Serine/threonine-protein kinase haspin (HASPIN, Homo sapiens, UniProt Q8TF76)",cell-free assay,competition with immobilised ligand,100%
"Aurora kinase C (AURKC, Homo sapiens, UniProt Q9UQB9)",cell-free assay,competition with immobilised ligand,100%
"Epidermal growth factor receptor (EGFR, Homo sapiens, UniProt P00533, del747-750/T751S)",cell-free assay,competition with immobilised ligand,83%
"Mitogen-activated protein kinase kinase kinase 1 (MAP3K1, Homo sapiens, UniProt Q13233)",cell-free assay,competition with immobilised ligand,100%
"Serine/threonine-protein kinase Nek3 (NEK3, Homo sapiens, UniProt P51956)",cell-free assay,competition with immobilised ligand,73%
"Epidermal growth factor receptor (EGFR, Homo sapiens, UniProt P00533, L858R)",cell-free assay,competition with immobilised ligand,100%
"Mitogen-activated protein kinase kinase kinase 4 (MAP3K4, Homo sapiens, UniProt Q9Y6R4)",cell-free assay,competition with immobilised ligand,72%
"Epidermal growth factor receptor (EGFR, Homo sapiens, UniProt P00533, del746-750)",cell-free assay,competition with immobilised ligand,67%
"Serine/threonine-protein kinase/endoribonuclease IRE1 (ERN1, Homo sapiens, UniProt O75460)",cell-free assay,competition with immobilised ligand,100%
"Casein kinase I isoform alpha-like (CSNK1A1L, Homo sapiens, UniProt Q8N752)",cell-free assay,competition with immobilised ligand,100%
"Hepatocyte growth factor receptor (MET, Homo sapiens, UniProt P08581, M1250T)",cell-free assay,competition with immobilised ligand,100%
"Tyrosine-protein kinase HCK (HCK, Homo sapiens, UniProt P08631)",cell-free assay,competition with immobilised ligand,100%
"AP2-associated protein kinase 1 (AAK1, Homo sapiens, UniProt Q2M2I8)",binding,,100%
"Mitogen-activated protein kinase kinase kinase 15 (MAP3K15, Homo sapiens, UniProt Q6ZN16)",cell-free assay,competition with immobilised ligand,100%
"Tyrosine-protein kinase TXK (TXK, Homo sapiens, UniProt P42681)",binding,competition with immobilised ligand,92%
"Myosin light chain kinase 2, skeletal/cardiac muscle (MYLK2, Homo sapiens, UniProt Q9H1R3)",cell-free assay,competition with immobilised ligand,100%

# Set 3
# SMILES: FC(F)(F)c1ccc(/C=C/c2nc(COc3ccc(CCCCn4ccnn4)cc3)co2)cc1
# Read-out: enzyme activity
# Action: inhibitor
# Concentration: 0.5 µM
# Reference: control
target,remaining activity [%]
"Mitogen-activated protein kinase 12 (MAPK12, Homo sapiens, UniProt P53778)",98.3
"Serine/threonine-protein kinase PLK2 (PLK2, Homo sapiens, UniProt Q9NYY3)",99.7
"Serine/threonine-protein kinase 38 (STK38, Homo sapiens, UniProt Q15208)",102
"Serine/threonine-protein kinase Nek4 (NEK4, Homo sapiens, UniProt P51957)",90
"Serine/threonine-protein kinase WNK2 (WNK2, Homo sapiens, UniProt Q9Y3S1)",95.9

# Mixed results
# FKH2 DNA-binding domain: Fork head protein homolog 2, DNA-binding domain (FKH2, Saccharomyces cerevisiae, UniProt P41813, residues 280-520)
# UniProt P41813, sequence (280-520, looked up): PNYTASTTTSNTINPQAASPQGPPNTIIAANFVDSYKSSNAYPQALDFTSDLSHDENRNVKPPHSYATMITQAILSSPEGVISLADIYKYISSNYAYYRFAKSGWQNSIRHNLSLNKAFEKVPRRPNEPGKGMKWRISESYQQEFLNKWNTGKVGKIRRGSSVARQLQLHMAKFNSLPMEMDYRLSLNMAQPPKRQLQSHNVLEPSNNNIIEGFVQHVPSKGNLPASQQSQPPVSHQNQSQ
Substance,target or system,test,system,conditions,scale,quantity,result
Cl.Cn1cc(C2=C(c3c4n(c5ccccc35)CCC(CN)C4)C(=O)NC2=O)c2ccccc21 (stereo not drawn),,"AlphaScreen signal, AlphaScreen counter screen",His6 peptide without bromodomain,"50 µM, assay interference check",,inhibition,93.7%
CAAAATA,FKH2 DNA-binding domain,SELEX-seq,"double-stranded DNA, one strand shown, in vitro","not given, 7-bp core, flanks averaged","reference: best-binding core, lower = stronger binding",relative binding free energy,1.58 ddG/RT
CC(C)n1cnc(-c2ccc(F)cc2)c1-c1ncc(C(=O)Nc2ccc(N3CCN(C)CC3)cc2)[nH]1,,,"idiopathic pulmonary fibrosis patients, plasma","oral, 60 mg once daily, week 0, arithmetic mean",,Cmax,266 ng/mL
COc1cc(C(=O)N2CCC(N3CCN(C)CC3)CC2)ccc1Nc1ncc2c(n1)N(C)c1ccccc1C(=O)N2C,"Serine/threonine-protein kinase PLK1 (PLK1, Homo sapiens, UniProt P53350)","kinase activity, inhibitor, Invitrogen SelectScreen",,,,IC50,9.83 µM
AGAAACA,FKH2 DNA-binding domain,SELEX-seq,"double-stranded DNA, one strand shown, in vitro","not given, 7-bp core, flanks averaged","reference: best-binding core, lower = stronger binding",relative binding free energy,2.43 ddG/RT
CC(C)(C)c1nc(-c2cccc(NS(=O)(=O)c3c(F)cccc3F)c2F)c(-c2ccnc(N)n2)s1,,"AlphaScreen signal, AlphaScreen counter screen",His6 peptide without bromodomain,"50 µM, assay interference check",,inhibition,18.6%

# For quick reference, copied from above (mixed results):
Substance,target or system,test,system,conditions,scale,quantity,result
CAAAATA,FKH2 DNA-binding domain,SELEX-seq,"double-stranded DNA, one strand shown, in vitro","not given, 7-bp core, flanks averaged","reference: best-binding core, lower = stronger binding",relative binding free energy,1.58 ddG/RT
AGAAACA,FKH2 DNA-binding domain,SELEX-seq,"double-stranded DNA, one strand shown, in vitro","not given, 7-bp core, flanks averaged","reference: best-binding core, lower = stronger binding",relative binding free energy,2.43 ddG/RT
COc1cc(C(=O)N2CCC(N3CCN(C)CC3)CC2)ccc1Nc1ncc2c(n1)N(C)c1ccccc1C(=O)N2C,"Serine/threonine-protein kinase PLK1 (PLK1, Homo sapiens, UniProt P53350)","kinase activity, inhibitor, Invitrogen SelectScreen",,,,IC50,9.83 µM
CC(C)n1cnc(-c2ccc(F)cc2)c1-c1ncc(C(=O)Nc2ccc(N3CCN(C)CC3)cc2)[nH]1,,,"idiopathic pulmonary fibrosis patients, plasma","oral, 60 mg once daily, week 0, arithmetic mean",,Cmax,266 ng/mL
Cl.Cn1cc(C2=C(c3c4n(c5ccccc35)CCC(CN)C4)C(=O)NC2=O)c2ccccc21 (stereo not drawn),,"AlphaScreen signal, AlphaScreen counter screen",His6 peptide without bromodomain,"50 µM, assay interference check",,inhibition,93.7%
